# Results of several laboratories.
# Each numbered part is a random draw from the data of one study; scales do not carry over between parts. Positions count from the first letter of the parent shown.

# Set 1
# Cell line: yeast with cyclin F-Cln2 chimera
# Read-out: cell growth
# Mode: binder
# Technique: competitive growth deep sequencing
# Molecule type: peptide
# Concentration: concentration not given
# Notes: peptide tiling library
# Direction: direction not given
Sequence,growth enrichment score
RTEALEQGGLPKKLIF,1.76
PPTFLSTGEIHAFLSS,0.376
ISRLFPPRTPGWHQLQ,0.809
HRRRLLFACSPPPASQ,3.8
ELGMEHCEKFEISETS,-0.096
ATNSSHTDAHEILVSD,-0.168
YLYLLLTQSLWCRV,1.81
KVRRNLFNQELLSP,3.34
SPREGHMMDALYAQVK,0.75
VSRNLRSSLKSSLHTL,0.532
SFLIEYEFLIPPSLKP,0.0398
NLEPNAEFDKRTEFIT,0.659
LAKRALKYTD,1.74
NRLLKLFTRCLTPLVP,1.76
RRRRLLFWDKETQI,2.65
NESHLDKEHDAVEVAD,0.0304
GPVKLEFDVSDGAT,1.15
EHCRVLFLDHVMYTIH,1.61

# Set 2
# Target: Interferon regulatory factor 5, full length, phosphomimetic (IRF5, Homo sapiens, UniProt Q13568-2, residues 1-514, S451D/S453D/S456D/S462D)
# Technique: protein-binding microarray
# Molecule type: double-stranded DNA, one strand shown
# Matrix: in vitro
# Concentration: 940 nM top
# Notes: 60-bp whole probe
# Together with: salmon DNA 0.4 mg/ml
# Reference: random background probes
# Direction: higher = stronger binding
# Constant ends, left off below: GCCTAGCAC … GTCTTGATTCGCTTGACGCTGCTG
Sequence,fitted relative affinity [z-score]
GACGAACTTAGTTTCGAGACGTGCTAG,4.45
TCATGCTTGGGTCTGGGACTGTGCTAG,-0.018
TTGGGTCTCGGTATCGGTTAGTGCTAG,6.89
TTTCTTTTTGCACTCTCTACGTGCTAG,4.45
TTTAGGTCCCTTTTCATGCTGTGCTAG,0.0751
TTAGGTCTCAGTCTCGATTAGTGCTAG,3.63
GACGATTTCGGGTTTGGAGACGTGCTA,0.504
TCAGTTTTGCTAAGTCAAACTGTGCTA,1.07
GACGGTTTCGAGTTTCGGGACGTGCTA,7.18
CCCCAACTCGCCTTTTTTGTTGTGCTA,0.883
TTAGATTTCGGGTCTCGATTAGTGCTA,1.99
TTAGATCTAAGTCTCGATTAGTGCTAG,2.12
TTAGGAATCGGACTGGGTTAGTGCTAG,-0.104
TCATCTTTTATTTTTTTACTGTGCTAG,1.86
GACGATATCAATCTCGAGACGTGCTAG,0.547
TTAGAACTGGACTTTCGGTTAGTGCTA,2.55

# Set 3
# Target: Histone acetyltransferase KAT6A, winged helix 1, GST fusion (KAT6A, Homo sapiens, UniProt Q92794, residues 1-85)
# Technique: protein binding microarray
# Molecule type: double-stranded DNA, one strand shown
# Matrix: in vitro
# Concentration: not given
# Notes: 8-mer, flanks averaged, mean of 2 arrays, mostly near background
# Reference: not given
# Direction: higher = stronger binding
# Residues (chain): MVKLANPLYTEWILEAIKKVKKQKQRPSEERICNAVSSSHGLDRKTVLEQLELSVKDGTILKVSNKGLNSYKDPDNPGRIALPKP
Sequence,E-score
GAATGTAA,-0.0542
CGATACGC,0.316
ATACAAAG,-0.0818
CAGTTGCA,-0.149
CGCAGGTA,0.134
CTATAGGC,0.102
AGTGGTAA,-0.22
ACTGGCTC,-0.165
CTCTAGTA,-0.0563
ACGATCAA,-0.257
AGACGGCT,0.335
GCTTTTCA,-0.115
ACATGATG,-0.145
ACCGAGAC,0.0216
AGCCGAAG,0.018
GCCCGTTA,0.346
GAGTGGAA,-0.113
ATCGCAGC,0.0174

# Set 4
# Target: Sal-like protein 4, full length isoform A (SALL4, Homo sapiens, UniProt Q9UJQ4, residues 1-1053)
# UniProt Q9UJQ4, sequence (whole entry, looked up): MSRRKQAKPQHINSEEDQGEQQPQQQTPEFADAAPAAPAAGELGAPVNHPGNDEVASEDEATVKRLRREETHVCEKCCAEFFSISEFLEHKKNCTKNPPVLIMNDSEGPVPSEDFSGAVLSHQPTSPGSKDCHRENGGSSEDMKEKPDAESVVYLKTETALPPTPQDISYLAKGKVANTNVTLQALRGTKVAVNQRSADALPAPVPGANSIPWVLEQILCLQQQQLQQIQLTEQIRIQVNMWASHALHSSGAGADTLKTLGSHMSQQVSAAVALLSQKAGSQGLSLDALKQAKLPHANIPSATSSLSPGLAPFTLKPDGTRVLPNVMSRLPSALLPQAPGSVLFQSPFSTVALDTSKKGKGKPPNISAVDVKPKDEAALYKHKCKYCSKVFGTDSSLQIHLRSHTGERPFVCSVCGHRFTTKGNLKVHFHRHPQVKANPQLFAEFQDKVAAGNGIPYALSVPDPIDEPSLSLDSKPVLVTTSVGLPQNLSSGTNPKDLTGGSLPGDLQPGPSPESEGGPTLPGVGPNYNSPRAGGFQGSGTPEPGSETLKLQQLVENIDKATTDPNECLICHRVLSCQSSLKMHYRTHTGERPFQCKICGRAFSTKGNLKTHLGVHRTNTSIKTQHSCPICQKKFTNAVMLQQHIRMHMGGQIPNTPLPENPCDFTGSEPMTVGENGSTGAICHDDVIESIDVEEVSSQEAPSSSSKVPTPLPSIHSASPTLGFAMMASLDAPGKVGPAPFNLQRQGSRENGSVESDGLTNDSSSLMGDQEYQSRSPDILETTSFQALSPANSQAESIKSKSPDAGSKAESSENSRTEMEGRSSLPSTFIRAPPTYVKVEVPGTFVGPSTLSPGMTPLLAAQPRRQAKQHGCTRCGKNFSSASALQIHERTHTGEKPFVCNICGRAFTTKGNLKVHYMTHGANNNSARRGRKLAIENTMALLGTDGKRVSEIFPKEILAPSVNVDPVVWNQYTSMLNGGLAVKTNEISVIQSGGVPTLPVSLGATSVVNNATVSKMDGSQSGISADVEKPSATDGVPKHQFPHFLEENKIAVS
# Technique: universal PBM
# Molecule type: double-stranded DNA, one strand shown
# Matrix: in vitro
# Concentration: 600 nM
# Notes: 8-mer, flanks averaged, mean of replicates
# Direction: higher = stronger binding
Sequence,E-score
ACCTTCGA,0.0091
GTTGGATA,0.0757
CGGTGCAG,-0.23
CTATGTGC,-0.00341
GGATCCAA,-0.0754
ATCGTGAC,-0.0126
CGTGTAAA,0.0186
CTGTGTTA,0.0996
AGTTAGTG,-0.00312
CCCTTCCG,-0.22
CTTGAGGA,-0.0713
CAGCTAAA,0.0981
TGTAGTAA,0.246
AGCTACGC,-0.131
GCCACACA,-0.203
CAAAAACA,0.148
ACAGGTCA,-0.0463
GTAGATAC,0.136
CATTTGGA,0.111
GGTCTATA,0.193
TGGTCGAA,-0.168
ACCGACTG,-0.306

# Set 5
# Target: ABI1, truncated, D143A, DHFR fusion (Arabidopsis thaliana)
# Technique: DHFR PCA, deep sequencing
# Matrix: yeast
# Notes: methotrexate growth selection, single substitutions
# Together with: (+)-ABA 0 µM
# Reference: wild-type fitted maximum
# Direction: higher = stronger binding
# Starting sequence: PYL1, truncated, DHFR fusion (Arabidopsis thaliana); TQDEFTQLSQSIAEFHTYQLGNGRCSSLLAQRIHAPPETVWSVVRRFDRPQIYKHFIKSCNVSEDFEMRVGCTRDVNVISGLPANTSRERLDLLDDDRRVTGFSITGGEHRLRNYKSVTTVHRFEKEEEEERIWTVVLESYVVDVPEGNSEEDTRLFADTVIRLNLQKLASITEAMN
Change,relative binding score
D95N,2.49%
Q31V,2%
R69D,-4.85%
V118G,2.1%
G107Y,1.12%
R111D,15%
A170N,-10.7%
R88V,32.2%
N114H,8.81%
V143Q,0.826%
I12G,1.07%
L138T,3.23%
S80T,40.3%
Y115A,7.77%
Q167P,3.87%
I57P,-4.07%
D75T,42.7%
L112G,-3.49%
E128V,7.04%
F157H,11.8%
V78M,61%
Q10Y,-0.147%
T17G,-1.2%
E125M,23%
E89N,-1.02%

# Set 6
# Target: RNA binding protein fox-1 homolog 2, RRM domain, GST-SBP tag (RBFOX2, Homo sapiens, UniProt O43251-10, residues 100-194)
# Technique: RNA Bind-n-Seq
# Molecule type: RNA
# Matrix: in vitro
# Concentration: 365 nM
# Notes: natural RNA segment, single round, ends assumed
# Reference: no-protein control
# Direction: higher = stronger binding
# Target sequence (chain): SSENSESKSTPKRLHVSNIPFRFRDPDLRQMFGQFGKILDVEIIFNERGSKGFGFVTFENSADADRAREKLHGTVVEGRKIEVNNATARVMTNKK
Sequence,RBNS enrichment (R)
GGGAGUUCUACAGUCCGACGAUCGCGGUGGUGGACCUCACCUUCAAUCCAAGUUUUCAAAGAUAUUUUCUCAAUAACUCUAAAAGGGAGGUGCUUGGGAUUAAGGUGACAGUCCACUUGAUCCUUUUCUUUGUUGGAAUUCUCGGGUGCCAA,0.467
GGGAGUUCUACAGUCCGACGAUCAGUGCUUUUUGUGUGGCUGAAGCGAUGUGCUGACGAAAAAAGGAAAAUUCUAGGACAAUCGUUGGCUAAAAAUCACCUUAGGAUGAAAAAUUUGAGGCAAAUUUUUUUAAUGGAAUUCUCGGGUGCCAA,1.31
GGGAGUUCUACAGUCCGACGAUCUUCAGUUUGUCCCUGAGACCCCUGAGUGGCCUUUGCUUCUCCAGGGUACUGGGUUGAAGAUCCAGCCACUUAAUUUCCCCUCUGAUUGUUUUGAUAUCUGAGAGACAGAAUGGAAUUCUCGGGUGCCAA,4.39
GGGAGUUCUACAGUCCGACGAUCGCAGAUCCUCUCCUCAGUCCGUGAAUCAGCACAGCUUGGAUUGAGCUUUACAACUAACAGCGCGCUAGAUGGCAGUUAAUUCGCAGUUAAAGAUAAUGCUUUUUAUUUACUGGAAUUCUCGGGUGCCAA,0.472
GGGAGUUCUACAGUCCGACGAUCUCACUAGUGUCAGGCCCCCAGUGGGACCACAUGCCACUGCCUGCACCUUUCGGCAGAGGAACCCCCACCAGACAUCACCCUUUGCCUUAGCAGGGGUGACUUUGUCUCUCUGGAAUUCUCGGGUGCCAA,0.256
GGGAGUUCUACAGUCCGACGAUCACCAACAUGGAGACCAAUGGGGUGGUGCCCGGCAUGUAAGCCCCGCCCACCCCACGGAGGCCACAGCCACACAGCCACGCCCCCUGAUUCUGGAACUCGCCCAACUUCCCUGGAAUUCUCGGGUGCCAA,0.2
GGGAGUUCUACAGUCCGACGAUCGUGUCUUUGGUAGGGGUGUAUUUUUAUUACACAGAGUUUUUGAACAUAUAGGGACCCCACCAAGAGGCUCUCCUCUCCCCUUCUUAAUCCCAGUAUAGACUGAGUGUCCAUGGAAUUCUCGGGUGCCAA,0.43
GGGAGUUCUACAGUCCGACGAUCUCCCCCAGAAACUUAGUGAGUCCUGGACUGGACUGAACAUCCAGAAAGCUUCCCUGCAAUCUUGGGGUUUGGCUUUAGUUUUCUUUUCCUUGAUUUCUCAGUAGGUGCUAUGGAAUUCUCGGGUGCCAA,0.339
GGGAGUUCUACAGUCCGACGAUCUGCUUCCUUUCUUUAUCCCUGUUUGUAAACACGGCGCCUCCCUUAAUGUGGCACCAUGCAGAUGUGACUUGAUUUGGCUGAGAGCUACCUUUCCUGAAGUAUGCACCCUAUGGAAUUCUCGGGUGCCAA,1.32
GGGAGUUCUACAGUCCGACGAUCGGCUUUGUUUCAGCCUGGAAGUGAGGGCUCUGGAGAUGGAGAUAGGAGCCAUAAGCUCUCCUUCAGACGGUGAGGCGGCUCCUGCCUCCUGCUACUGAAAUCUGCAGACAUGGAAUUCUCGGGUGCCAA,0.439
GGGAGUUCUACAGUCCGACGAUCUAUAAAAUGAUGGCUUGGAAAAGCAGGCUAGUCUAACCAUGGUGCUAUUAUUAGGCUUGCUUGUUACACACACAGGUCUAAGCCUAGUAUGUCAAUAAAGCAAAUACUUAUGGAAUUCUCGGGUGCCAA,0.337
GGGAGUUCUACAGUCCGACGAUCUCUGAAUAAACAACCCCAGCCCACUUAACUAUUCACAUCUUAGAGGCAAAUUCUUGCUAUGUAACUCAGGCUGGCAUCAAAGUCUUAGUCUUUCUGUUGCUGGUUAUUGAUGGAAUUCUCGGGUGCCAA,0.374
